Measured values of several laboratories.
Compare with care: the assays were run in different laboratories. Several values in a cell are separate wells, animals, samples, runs or records. ± marks the error that the study gave.

SMILES | test | system | conditions | scale | quantity | value
CN(C(=O)n1cnc(-c2ccc[n+]([O-])c2)c1)C1CCCCC1 | – | Wistar rat, pons | oral, 10 mg/kg/day, 48 h, repeated 5 days | – | concentration | 14.2 ± 1.4 ng/g
N#Cc1ccc(COc2cccc(C(=O)Nc3ccc4c(c3)B(O)OC4)c2)cc1 | PAMPA | – | 200 µM, 5 h, pH 7.4 | – | membrane retention | 14.8%
CCC[C@@](N)(CO)CCc1ccc(OCCCCCC(C)C)cc1 | – | hound dogs, male | oral, 5 mg/kg, capsule, fed state, geometric mean | – | AUC(0-last) | 5.16 µM·h
Cn1cc(-c2nc(N[C@@H]3CCCC[C@@H]3N)c(F)c3c2C(=O)NC3)cn1 | measured: Retinal haemorrhage | patients with relapsed or refractory AML | oral, 60 mg twice daily | – | hemorrhagic adverse events | 13%
COc1ccc(-c2c(-c3ccc(C#N)c(F)c3)nc(N3CCC(N)CC3)n(C)c2=O)cc1F | measured: Leukopenia | neuroendocrine neoplasm patients | oral, 60 mg, grade 3 to 4, dose expansion | – | treatment-related adverse event incidence | 0%
CC(C)(c1ccccc1)c1cc(-n2nc3ccccc3n2)c(O)c(C(C)(C)c2ccccc2)c1 | exposure assessment | human, age 6-11 years | sunscreen | – | mean daily dermal uptake | 0.5 ng/kg body weight/day
CCc1ccc(CC/C=C/c2ccc3c(c2)C(=O)CC3)cc1 | – | Sprague-Dawley rat, female | oral, 30 mg/kg/day, 14 days | – | APTT | 14.3 s
CC[C@H](C)[C@H](NC(=O)[C@H](Cc1ccccc1)NC(=O)[C@H](CCC(=O)O)NC(=O)[C@H](CCCNC(=N)N)NC(=O)[C@H](C)NC(=O)[C@H](C)NC(=O)[C@H](CCC(N)=O)NC(=O)[C@H](CCC(=O)O)NC(=O)[C@H](CCC(=O)O)NC(=O)[C@H](CC(C)C)NC(=O)[C@H](Cc1ccc(O)cc1)NC(=O)[C@H](CO)NC(=O)[C@H](CO)NC(=O)[C@@H](NC(=O)[C@H](CC(=O)O)NC(=O)[C@H](CO)NC(=O)[C@@H](NC(=O)[C@H](Cc1ccccc1)NC(=O)[C@@H](NC(=O)CNC(=O)[C@H](CCC(=O)O)NC(=O)[C@H](C)NC(=O)CCc1cnc[nH]1)[C@@H](C)O)[C@@H](C)O)C(C)C)C(=O)N[C@@H](C)C(=O)N[C@@H](Cc1c[nH]c2ccccc12)C(=O)N[C@@H](CC(C)C)C(=O)N[C@H](C(=O)N[C@@H](CCCNC(=N)N)C(=O)NCC(=O)N[C@@H](CCCNC(=N)N)C(=O)N[C@@H](CCCCNC(=O)COCCOCCNC(=O)COCCOCCNC(=O)CC[C@H](NC(=O)CCCCCCCCCCCCCCCCC(=O)O)C(=O)O)C(=O)NCC(=O)NCC(=O)N[C@@H](CO)C(=O)N[C@@H](CCSC)C(=O)N[C@H](C(=O)N[C@@H](CCCCNc1c(NCCCCCN(O)C(=O)CCC(=O)NCCCCCN(O)C(=O)CCC(=O)NCCCCCN(O)C(C)=O)c(=O)c1=O)C(=O)O)C(C)C)C(C)C [zirconium-89 labelled] | ex vivo gamma counting | male Sprague-Dawley rats, pancreas | intravenous, 1 nmol, 24 h, mean of 3 animals | – | tissue uptake | 0.161 %ID/g
COc1ccc([C@@H](O)c2cc(-c3ncnc4cc(N5CCOCC5)ccc34)c(F)cc2Cl)nn1 | – | patients, advanced solid tumours | oral, 250 mg twice daily, treatment-emergent, together with: avelumab | – | metabolism, nutrition disorders incidence | 3%
CO[C@H]1C[C@@H]2CC[C@@H](C)[C@@](O)(O2)C(=O)C(=O)N2CCCC[C@H]2C(=O)O[C@H]([C@H](C)C[C@@H]2CC[C@@H](OC(=O)NCCOCCOCCOCCOCCOCCOCCOCCOCCC(=O)N3CCc4cc(Cn5nc(-c6ccc7oc(N)nc7c6)c6c(N)ncnc65)ccc4C3)[C@H](OC)C2)C[C@@H](O)[C@H](C)/C=C(\C)[C@@H](O)[C@@H](OC)C(=O)[C@H](C)C[C@H](C)/C=C/C=C/C=C/1C | phase 1 dose escalation, measured: vomiting | advanced solid tumour patients | intravenous, 10 mg weekly, any grade | – | TRAE incidence | 12.5%
COc1cccc(Oc2ccccc2NC(=O)CNC(=O)c2cccc3ccccc23)c1 | – | esterase-deficient SCID mice, male, blood | oral, 100 mg/kg/day, 14 days, toxicity study | relative to: white cells | monocytes | 5.1% and 6% and 13.5%
COc1cc2c(Oc3ccc4[nH]c(C)cc4c3F)ccnc2cc1OCC1(N)CC1 | – | paediatric recurrent refractory sarcoma | 8 mg | – | Neutropenia incidence | 0%
O=C(O)C(O)(c1cccs1)c1cccs1 | – | human, CSF | 2 mg once daily, 5 days, median | – | dose-normalised AUC(0-24) | 0.38 (ng·h/mL)/mg
N[C@@H]1c2ccccc2OC12CCN(c1cnc3c(N4CCCc5ncccc54)n[nH]c3n1)CC2 | – | advanced solid tumour patients | oral, 20 mg once daily | – | TEAE causing dose reduction | 0%
O=C(Nc1ccccc1)C1CCN(C(=O)Oc2cccnc2)CC1 | – | healthy women | oral, 20 mg, 7 days | – | adverse event Nasopharyngitis | 0%
CC[C@H](C)[C@H](NC(=O)[C@H](CCCCN)NC(=O)[C@H](CCC(=O)O)NC(=O)[C@H](CCCCN)NC(=O)[C@H](CO)NC(=O)[C@H](CCCCN)NC(=O)[C@H](CCCNC(=N)N)NC(=O)[C@H](Cc1ccccc1)NC(=O)[C@H](Cc1ccccc1)NC(=O)[C@H](CC(=O)O)NC(=O)CNC(=O)[C@H](CC(C)C)NC(=O)[C@@H](N)CC(C)C)C(=O)NCC(=O)N[C@@H](CCCCN)C(=O)N[C@@H](CCC(=O)O)C(=O)N[C@@H](Cc1ccccc1)C(=O)N[C@@H](CCCCN)C(=O)N[C@@H](CCCNC(=N)N)C(=O)N[C@H](C(=O)N[C@H](C(=O)N[C@@H](CCC(N)=O)C(=O)N[C@@H](CCCNC(=N)N)C(=O)N[C@H](C(=O)N[C@@H](CCCCN)C(=O)N[C@@H](CC(=O)O)C(=O)N[C@@H](Cc1ccccc1)C(=O)N[C@@H](CC(C)C)C(=O)N[C@@H](CCCNC(=N)N)C(=O)N[C@@H](CC(N)=O)C(=O)N[C@@H](CC(C)C)C(=O)N[C@H](C(=O)N1CCC[C@H]1C(=O)N[C@@H](CCCNC(=N)N)C(=O)N[C@H](C(=O)N[C@@H](CCC(=O)O)C(=O)N[C@@H](CO)C(=O)O)[C@@H](C)O)C(C)C)[C@@H](C)CC)C(C)C)[C@@H](C)CC | LC-MS | buffer with human neutrophil elastase | 40 µM, 120 min, pH 7.5, 37 °C | relative to: 0 h | remaining intact peptide | 1.39% and 1.87%
CC(C)C[C@H](NC(=O)[C@H](CCCCN)NC(=O)OCC1c2ccccc2-c2ccccc21)C(=O)N[C@H](C(=O)N[C@@H](Cc1ccccc1)C(=O)N[C@@H](Cc1ccccc1)C(=O)N[C@@H](CCCCN)C(=O)NCC(=O)N[C@@H](Cc1ccccc1)C(=O)N[C@@H](C)C(=O)N[C@@H](Cc1c[nH]c2ccccc12)C(=O)N[C@@H](CC(N)=O)C(=O)N[C@H](C(=O)N[C@H]1CSSC[C@@H](C(=O)N[C@@H](Cc2c[nH]cn2)C(=O)N[C@@H](CCCNC(=N)N)C(=O)N[C@@H](CCCNC(=N)N)C(=O)N[C@@H](C)C(=O)N[C@@H](CC(N)=O)C(N)=O)NC(=O)[C@H](C(C)C)NC(=O)[C@H](CCCNC(=N)N)NC(=O)[C@H](C(C)C)NC(=O)CNC(=O)[C@H](CC(N)=O)NC(=O)[C@H](CCCNC(=N)N)NC(=O)[C@H](Cc2ccc(O)cc2)NC(=O)[C@H](C(C)C)NC1=O)C(C)C)C(C)C | – | ICR mice, serum | intraperitoneal, 5 mg/kg, day 5 | – | phosphorus | 3.37 ± 0.1 mmol/L

SMILES | test | system | conditions | scale | quantity | value
C[C@]1(CO)Cc2ncn(-c3ccc(C#N)c(Cl)c3)c2C(=O)O1 | – | human, plasma | 10 mg, first dose fasted | – | Cmax | 453 nM
COc1ccnc(C(=O)N[C@H]2COC(=O)[C@H](Cc3ccccc3)[C@@H](OC(=O)C(C)C)[C@H](C)OC2=O)c1OCOC(=O)C(C)C | maternal toxicity, body weight loss | rabbit | – | – | NOAEL | 177 mg/kg/day
Nc1ncnc2c1ncn2[C@@H]1O[C@@H]2COP(=O)([S-])O[C@@H]3[C@H](O)[C@@H](COP([O-])(=S)O[C@H]2[C@H]1O)O[C@H]3n1cnc2c(N)ncnc21.[Na+].[Na+] (stereo partly shown) | – | non-tumor-bearing mice, serum | intravenous, 1 mg/kg, toxicity study | – | amylase | 886 ± 136 U/L
CC(C)NCCCC[C@@H]1NC(=O)[C@H](Cc2ccc(O)cc2)NC(=O)[C@H](Cc2ccccc2)NC(=O)CC[C@H](C(=O)N[C@@H](CCCCNC(C)C)C(=O)N[C@@H](CCCCNC(=O)[C@H](CCC(=O)O)NC(=O)[C@H](CCC(=O)O)NC(=O)[C@H](CCC(=O)O)NC(=O)CN2CCN(CC(=O)O)CCN(CC(=O)O)CC2)C(N)=O)NC(=O)CNC(=O)[C@H](Cc2ccc3ccccc3c2)NC(=O)[C@@H](CCCNC(=N)N)NC1=O [fluorine-18 labelled] | – | mouse, plasma | 75 min, post injection | – | intact parent fraction | 94 ± 1.89%
CC(C)C[C@H](NC(=O)[C@H](Cc1ccccc1)NC(=O)[C@H](Cc1ccccc1)NC(=O)Cc1ccc(-c2ccccc2)cc1)C(=O)N[C@@H](CCCCN)C(=O)N[C@@H](CCCNC(=N)N)C(=O)N[C@H](C(=O)N[C@@H](Cc1c[nH]c2ccccc12)C(=O)N[C@@H](CCCCN)C(=O)N[C@@H](CCCNC(=N)N)C(=O)O)C(C)C | – | dog liver microsomes | – | – | intrinsic clearance | 52.6 mL/min/kg
CC(C)=CC1C(C(=O)OC(C#N)c2cccc(Oc3ccccc3)c2)C1(C)C (stereo not shown) | measured: CYP2C8 | human, age 6 months | – | – | enzyme contribution to clearance | 5.84%
CC(=O)c1c(C)c2cnc(Nc3ccc(C4CCN(CCS(C)(=O)=O)CC4)cn3)nc2n(C2CCCC2)c1=O | – | human patients, plasma | oral, 75 mg twice daily, day 1 single dose, together with: fulvestrant | – | AUC(0-inf) | 938 ng·h/mL
O=C1Nc2cc3[nH]nc(-c4ccncc4)c3cc2CN1Cc1ccccc1 | CTCAE v4.03 | human, relapsed or refractory advanced solid tumours | intravenous, 6.4 mg/kg | – | patients with QTc prolongation | 0%
O=S(=O)(Nc1ccccc1)c1ccc(NC(=S)Nc2ccccc2)cc1 | measured: ALKP | female mouse, blood | oral, 5 mg/kg daily, 14 days | – | serum enzyme activity | 158 U/L
COc1ccc2nc3cc(Cl)ccc3c(Nc3cc(CN4CCCC4)c(O)c(CN4CCCC4)c3)c2n1 | – | mouse, blood | intraperitoneal, 28 mg/kg | – | eosinophil count | 1.29 10⁹/L
C[C@H]1CN(C(=O)CC#N)[C@]12CCN(c1ncnc3[nH]ccc13)C2 | – | rat female | oral, 10 mg/kg repeated daily, 6 months, repeated-dose toxicity study | – | Cmax at NOAEL | 1800 ng/mL
Cc1cccc(Cn2nc(C3CC3)c3c(NC(=O)c4cnc5cc(OCCN6CCN(C)CC6)ccn45)cccc32)n1 | CTCAE v4.03, measured: blood CPK increased | pancreatic ductal adenocarcinoma patients | oral, dose not given, together with: pembrolizumab IV every 3 weeks | – | all-cause adverse events | 18.5%
O=C(O)CNCP(=O)(O)O | – | whole cow milk | 20 nM nominal | – | dose fraction in milk fat | 0.8%
CCNCCCNC/C=C\CNCCCNCC | – | human, advanced solid tumours | intravenous, dose not given | relative to: patients | drug-related TEAE, metabolism disorders | 26.1%
C[C@@H](NC(=O)N1C(=O)[C@H](Cc2ccnc(N)c2)[C@H]1C(=O)O)C1CCCCC1 | – | healthy Chinese adult volunteers | continuous intravenous infusion, dose not given, 5.0 days, all doses pooled | – | subjects with AEs leading to discontinuation | 7.5%
O=C(O)CCC(CP(=O)(O)O)C(=O)O (stereo not shown) | – | rat, plasma | 4 µg/mL, 28 days, -80 °C, long-term stability | – | measured concentration | 3.85 ± 0.13 µg/mL
CC(C)CC(=O)OC[C@H]1O[C@@](C#N)(c2ccc3c(N)ncnn23)[C@H](O)[C@@H]1O | – | Mice plasma | 5 µM, 15 min | – | remaining compound | 0.012 ± 0.003%
